Measured values collected from several papers.
Values joined by “and” are separate records of one study, mostly repeats; a detail may differ. Numbers after ± are the reported error.
FGFR1: Fibroblast growth factor receptor 1 (FGFR1, Homo sapiens, UniProt P11362)
Chain of UniProt P11362 (whole entry, looked up): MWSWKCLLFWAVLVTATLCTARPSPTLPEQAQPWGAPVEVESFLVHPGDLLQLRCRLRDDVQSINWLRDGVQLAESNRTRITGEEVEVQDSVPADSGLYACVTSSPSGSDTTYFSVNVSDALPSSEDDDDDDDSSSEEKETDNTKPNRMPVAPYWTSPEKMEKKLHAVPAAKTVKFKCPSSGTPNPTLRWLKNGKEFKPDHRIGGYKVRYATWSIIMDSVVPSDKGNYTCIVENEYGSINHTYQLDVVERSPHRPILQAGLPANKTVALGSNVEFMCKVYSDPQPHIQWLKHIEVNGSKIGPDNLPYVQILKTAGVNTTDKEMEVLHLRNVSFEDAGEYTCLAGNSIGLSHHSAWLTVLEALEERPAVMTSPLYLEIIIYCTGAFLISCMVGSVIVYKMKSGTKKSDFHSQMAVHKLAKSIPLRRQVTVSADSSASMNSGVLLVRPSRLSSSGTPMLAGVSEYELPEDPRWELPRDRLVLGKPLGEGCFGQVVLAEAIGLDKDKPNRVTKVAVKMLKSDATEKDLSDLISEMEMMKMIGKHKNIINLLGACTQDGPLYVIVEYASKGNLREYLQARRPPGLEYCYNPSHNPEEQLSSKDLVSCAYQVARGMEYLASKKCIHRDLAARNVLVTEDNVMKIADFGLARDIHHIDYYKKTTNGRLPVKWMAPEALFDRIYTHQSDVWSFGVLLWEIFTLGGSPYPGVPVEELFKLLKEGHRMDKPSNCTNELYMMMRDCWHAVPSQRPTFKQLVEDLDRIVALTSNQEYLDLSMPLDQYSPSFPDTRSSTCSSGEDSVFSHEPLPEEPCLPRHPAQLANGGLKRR
HCRTR2 del254-292/I293E/K294R/L160H/M161K/Q254E: Orexin receptor type 2 (HCRTR2, Homo sapiens, UniProt O43614, del254-292/I293E/K294R/L160H/M161K/Q254E)
Chain of UniProt O43614 (whole entry, unmodified, looked up): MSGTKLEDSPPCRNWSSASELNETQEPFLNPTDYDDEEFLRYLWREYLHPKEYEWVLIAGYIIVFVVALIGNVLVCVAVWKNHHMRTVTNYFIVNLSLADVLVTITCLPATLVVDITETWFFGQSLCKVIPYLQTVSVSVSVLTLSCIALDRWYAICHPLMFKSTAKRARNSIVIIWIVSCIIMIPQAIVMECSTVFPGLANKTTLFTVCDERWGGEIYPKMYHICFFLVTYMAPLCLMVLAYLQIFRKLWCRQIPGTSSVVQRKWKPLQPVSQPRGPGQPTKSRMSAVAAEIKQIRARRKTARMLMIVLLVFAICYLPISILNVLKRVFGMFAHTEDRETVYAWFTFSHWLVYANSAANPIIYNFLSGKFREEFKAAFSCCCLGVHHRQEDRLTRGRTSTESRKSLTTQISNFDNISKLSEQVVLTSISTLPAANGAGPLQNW
Chain of UniProt Q01959 (whole entry, looked up): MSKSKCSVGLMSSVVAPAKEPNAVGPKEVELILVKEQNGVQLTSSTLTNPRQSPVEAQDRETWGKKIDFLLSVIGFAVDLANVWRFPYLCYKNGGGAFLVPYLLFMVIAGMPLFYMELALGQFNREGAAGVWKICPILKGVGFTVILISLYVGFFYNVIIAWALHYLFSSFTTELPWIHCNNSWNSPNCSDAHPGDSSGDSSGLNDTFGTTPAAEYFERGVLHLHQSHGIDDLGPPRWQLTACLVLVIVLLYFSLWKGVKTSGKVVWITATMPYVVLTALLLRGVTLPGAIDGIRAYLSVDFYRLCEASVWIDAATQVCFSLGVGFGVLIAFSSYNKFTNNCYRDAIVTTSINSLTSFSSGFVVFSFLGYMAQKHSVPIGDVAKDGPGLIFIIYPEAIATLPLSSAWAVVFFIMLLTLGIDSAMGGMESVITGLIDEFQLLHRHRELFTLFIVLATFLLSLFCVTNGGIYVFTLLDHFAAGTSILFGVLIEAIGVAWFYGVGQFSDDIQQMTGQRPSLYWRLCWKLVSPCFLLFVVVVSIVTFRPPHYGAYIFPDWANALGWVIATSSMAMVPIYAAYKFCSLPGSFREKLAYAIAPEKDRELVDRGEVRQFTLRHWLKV
Chain of UniProt Q5ANA3 (whole entry, looked up): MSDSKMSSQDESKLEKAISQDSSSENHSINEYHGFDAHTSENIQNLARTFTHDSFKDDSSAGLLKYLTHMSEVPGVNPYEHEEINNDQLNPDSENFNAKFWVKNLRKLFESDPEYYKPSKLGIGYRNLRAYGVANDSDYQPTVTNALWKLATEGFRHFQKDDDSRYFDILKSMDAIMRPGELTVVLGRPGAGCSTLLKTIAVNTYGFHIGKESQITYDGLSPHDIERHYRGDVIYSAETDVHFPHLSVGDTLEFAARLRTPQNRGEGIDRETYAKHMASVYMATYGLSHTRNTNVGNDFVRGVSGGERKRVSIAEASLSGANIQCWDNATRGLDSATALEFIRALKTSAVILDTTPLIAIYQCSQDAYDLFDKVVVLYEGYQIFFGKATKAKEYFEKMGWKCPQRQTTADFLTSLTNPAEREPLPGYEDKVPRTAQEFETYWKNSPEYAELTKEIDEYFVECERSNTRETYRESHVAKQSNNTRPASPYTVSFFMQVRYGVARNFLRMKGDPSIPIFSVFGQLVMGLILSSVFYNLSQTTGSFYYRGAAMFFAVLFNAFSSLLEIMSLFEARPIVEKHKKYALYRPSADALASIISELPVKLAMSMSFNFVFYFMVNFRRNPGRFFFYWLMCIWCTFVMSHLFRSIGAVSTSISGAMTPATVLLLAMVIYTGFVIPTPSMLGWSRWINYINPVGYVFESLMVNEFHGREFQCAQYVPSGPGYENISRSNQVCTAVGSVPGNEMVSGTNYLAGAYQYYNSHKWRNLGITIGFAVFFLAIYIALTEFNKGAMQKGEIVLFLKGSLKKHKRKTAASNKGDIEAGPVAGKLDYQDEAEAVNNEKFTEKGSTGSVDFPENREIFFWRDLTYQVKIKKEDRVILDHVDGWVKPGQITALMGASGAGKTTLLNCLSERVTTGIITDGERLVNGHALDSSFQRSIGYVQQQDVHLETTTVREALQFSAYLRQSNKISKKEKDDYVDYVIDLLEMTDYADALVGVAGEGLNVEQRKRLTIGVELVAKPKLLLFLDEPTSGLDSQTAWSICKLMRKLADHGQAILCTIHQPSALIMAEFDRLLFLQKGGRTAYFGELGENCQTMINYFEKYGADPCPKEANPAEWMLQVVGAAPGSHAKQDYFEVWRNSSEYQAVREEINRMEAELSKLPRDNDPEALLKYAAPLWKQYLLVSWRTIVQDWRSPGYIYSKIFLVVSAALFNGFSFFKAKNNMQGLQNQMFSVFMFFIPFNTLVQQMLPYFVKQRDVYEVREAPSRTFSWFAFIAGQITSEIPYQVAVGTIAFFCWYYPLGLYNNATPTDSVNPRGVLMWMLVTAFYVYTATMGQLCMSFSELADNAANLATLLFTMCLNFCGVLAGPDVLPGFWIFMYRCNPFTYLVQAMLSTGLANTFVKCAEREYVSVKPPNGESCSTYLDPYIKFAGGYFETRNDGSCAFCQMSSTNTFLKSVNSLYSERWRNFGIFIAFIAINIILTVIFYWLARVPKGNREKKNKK
Chain of UniProt P06276 (whole entry, looked up): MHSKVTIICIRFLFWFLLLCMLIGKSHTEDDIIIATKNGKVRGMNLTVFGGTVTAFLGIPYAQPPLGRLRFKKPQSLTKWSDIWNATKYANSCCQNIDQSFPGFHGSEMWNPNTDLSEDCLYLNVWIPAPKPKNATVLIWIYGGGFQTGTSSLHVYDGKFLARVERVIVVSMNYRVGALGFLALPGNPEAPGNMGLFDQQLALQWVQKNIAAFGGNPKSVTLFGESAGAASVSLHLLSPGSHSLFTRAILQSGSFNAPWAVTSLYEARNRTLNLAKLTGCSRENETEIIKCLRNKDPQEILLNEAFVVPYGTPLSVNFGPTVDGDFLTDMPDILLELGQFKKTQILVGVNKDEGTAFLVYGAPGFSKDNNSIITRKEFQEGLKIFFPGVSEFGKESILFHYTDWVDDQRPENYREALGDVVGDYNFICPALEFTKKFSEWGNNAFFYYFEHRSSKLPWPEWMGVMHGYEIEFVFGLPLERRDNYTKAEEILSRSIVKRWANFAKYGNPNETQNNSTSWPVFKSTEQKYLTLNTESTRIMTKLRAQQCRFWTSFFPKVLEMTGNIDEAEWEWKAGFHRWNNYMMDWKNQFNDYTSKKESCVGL
Chain of UniProt Q92743 (whole entry, looked up): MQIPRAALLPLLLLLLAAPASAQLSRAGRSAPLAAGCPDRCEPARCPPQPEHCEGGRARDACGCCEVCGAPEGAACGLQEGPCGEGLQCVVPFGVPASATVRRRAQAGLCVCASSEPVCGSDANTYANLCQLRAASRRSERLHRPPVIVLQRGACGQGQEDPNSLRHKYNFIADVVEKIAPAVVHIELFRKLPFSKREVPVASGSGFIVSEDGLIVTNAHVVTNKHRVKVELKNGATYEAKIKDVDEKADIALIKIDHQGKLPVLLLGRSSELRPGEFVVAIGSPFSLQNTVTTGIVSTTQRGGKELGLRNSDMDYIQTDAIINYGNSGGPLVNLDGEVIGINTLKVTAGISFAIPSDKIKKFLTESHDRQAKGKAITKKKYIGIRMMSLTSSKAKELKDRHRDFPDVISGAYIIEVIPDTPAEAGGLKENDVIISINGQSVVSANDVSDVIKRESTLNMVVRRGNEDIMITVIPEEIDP
Chain of UniProt P9WKJ7 (whole entry, looked up): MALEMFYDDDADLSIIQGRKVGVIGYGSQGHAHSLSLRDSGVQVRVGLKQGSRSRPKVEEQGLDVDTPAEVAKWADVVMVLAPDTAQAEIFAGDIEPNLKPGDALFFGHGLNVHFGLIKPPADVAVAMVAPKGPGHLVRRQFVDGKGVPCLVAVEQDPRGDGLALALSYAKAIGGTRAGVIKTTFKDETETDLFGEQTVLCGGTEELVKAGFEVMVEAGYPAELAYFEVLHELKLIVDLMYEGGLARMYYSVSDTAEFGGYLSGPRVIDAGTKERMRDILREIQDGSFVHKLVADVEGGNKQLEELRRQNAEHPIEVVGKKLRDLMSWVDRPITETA

With CN[C@@]1(c2ccccc2Cl)CCCCC1=O the inhibition was -5% (Neuronal acetylcholine receptor; alpha4/beta2 (Homo sapiens, UniProt P17787+P43681); radioligand binding, agonist, radioligand displacement; 30 µM).
O=C(Nc1cccnn1)N1CCC(=Cc2cccc(Oc3ccc(C(F)(F)F)cn3)c2)CC1 has an inhibition of -6% (FGFR1; kinase activity, inhibitor; 10 µM, human, added: poly(Glu:Tyr) substrate).
Under “mean protein ratio”, O=C(c1ccc(Cl)cc1)N1CCN2C(=O)N(OC(=O)N3CCOc4ccccc43)C(=O)C2C1 (stereo not shown) is recorded as 1.19 (Serine protease HTRA1 (Homo sapiens, UniProt Q92743); MS-based ABPP; SW-620 conditioned medium; 10 µM, 1 h, 37 °C; relative to: treated over control).
The IC50 of O=C(O)C1=CC(=C(c2ccc(O)c(C(=O)O)c2)c2ccc(O)c(C(=O)O)c2)C=CC1=O is reported as 7.94 µM (Plasmodium falciparum; 3D7).
c1ccc2cc([C@]34CNC[C@H]3C4)ccc2c1 gave a dopamine uptake of 0.11% and 0.349% and 0.0853% (Sodium-dependent dopamine transporter (SLC6A3, Homo sapiens, UniProt Q01959); inhibitor, [3H]dopamine uptake; 100 µM; relative to: no inhibitor).
With CCCCCCCC[C@H]1O[C@H]1C/C=C/C=C/[C@H](O)CC(=O)NC1=C[C@](C)(CC)OC1=O the ΔG was -8.4 kcal/mol (Na(+)-translocating NADH-quinone reductase subunit B, whole Na+-NQR complex (nqrB, Vibrio cholerae serotype O1, UniProt Q9KPS2, G141A); binding, isothermal titration calorimetry; 20 °C, NqrB-G141A mutant).
O=c1[nH]c2nc(-c3ccccc3)sc2c(=O)n1O gave a koff of 1.9e-05 s⁻¹ (Ketol-acid reductoisomerase (NADP(+)) (ilvC, Mycobacterium tuberculosis, UniProt P9WKJ7); slow-binding inhibitor; no pre-incubation).
COC(=O)[C@@H](NC(=O)c1nn(Cc2ccc(F)cc2)c2ccccc12)C(C)(C)C: “Gi GTP turnover maximum” 102% (Cannabinoid receptor 1 (CNR1, Homo sapiens, UniProt P21554); GTPase; relative to: compound).
CNC(=O)[C@@H](c1ccccc1)N1CCc2cc(OC)c(OC)cc2[C@@H]1CCc1ccc(C(F)(F)F)cc1: “normalised fluorescence response” -2.62 and -3.01 and -2.1 and 0.579 and -2.78 and 2.22 and 1.69 (HCRTR2 del254-292/I293E/K294R/L160H/M161K/Q254E; fluorescence sensor response, fluorescence; concentration not given).
For Cc1scc2c1N(C(=O)CN1CCN(C)CC1)c1ccccc1NC2=O, the IC50 was 3.16 µM (Plasmodium falciparum; 3D7).
CCCc1cc(O)c2c(c1)OC(C)(C)[C@@H]1CCC(C)=C[C@@H]21 has a Hill coefficient of 2.08 ± 0.24 (Transient receptor potential cation channel subfamily V member 3 (TRPV3, Homo sapiens, UniProt Q8NET8, S444A); calcium uptake, agonist; HEK293S; mutant S444A, site 2).
C[C@]12CCC(=O)C=C1CC[C@@H]1[C@@H]2CC[C@]2(C)C(=O)CC[C@@H]12: “association rate constant” 1.1e+07 M⁻¹ s⁻¹ (Aromatase (CYP19A1, Homo sapiens, UniProt P11511)).
CN1C(=O)CN=C(c2ccccc2)c2cc(Cl)ccc21 has an inhibition of 100% (GABA-A receptor benzodiazepine site, central (rat); radioligand binding; rat brain; 1×10 µM).
COc1ccc(N2C(=O)N(c3c(C)cccc3Cl)Cc3cnc(Nc4ccc(C5CCN(C)CC5)cc4OC)nc32)nc1 gave an inhibition of 18% (Insulin receptor (INSR, Homo sapiens, UniProt P06213); kinase activity; 0.5 µM).
Cc1ccc(-n2nccn2)c(C(=O)N2CCN(c3nc4cc(Cl)ccc4o3)CC[C@H]2C)c1 — result for “normalised fluorescence response”: -0.155 and -0.0149 and 0.348 and -0.265 and 0.0564 and -0.0321 (HCRTR2 del254-292/I293E/K294R/L160H/M161K/Q254E; fluorescence sensor response, fluorescence; concentration not given, added: OXA).
With C=CCN1CC[C@]23c4c5ccc(O)c4O[C@H]2C(=O)CC[C@]3(O)[C@H]1C5 the inhibition was 4% (Choline O-acetyltransferase (Homo sapiens, UniProt P28329); concentration not given).
With Clc1cccc(N2CCNCC2)c1Cl the Emax was 16% (Muscarinic acetylcholine receptor M4 (CHRM4, Homo sapiens, UniProt P08173); ERK1/2 phosphorylation, agonist; CHO cells).
For CCN(CC)C(=O)[C@@H]1C=C2c3cccc4[nH]cc(c34)C[C@H]2N(C)C1, the efficacy was -93.8 ± 3.71% (Cholinesterase (BCHE, Homo sapiens, UniProt P06276); concentration not given, Triton).
For Oc1ccc2c3c1O[C@H]1[C@@H](O)CC[C@@]4(O)[C@@H](C2)N(CC2CCC2)CC[C@]314, “log2 fold change” read -0.365 (Hydroxycarboxylic acid receptor 3 (HCAR3, Homo sapiens, UniProt P49019); β-arrestin recruitment, TANGO luminescence, refers to: GPR109B; concentration not given; relative to: basal luminescence).
The remaining activity of OC(Cn1cncn1)(Cn1cncn1)c1ccc(F)cc1F is reported as 82.1% and 82.2% (CDR1 (Candida albicans, UniProt Q5ANA3); ATPase activity, malachite green; 4 µM; relative to: no drug).
For CN(C(=O)n1cnc(-c2ccc[n+]([O-])c2)c1)C1CCCCC1, the inhibition was 3% (FGFR1; kinase activity, inhibitor; 10 µM, human, added: poly(Glu:Tyr) substrate).
CCCCCCC(C)(C)c1ccc([C@@H]2C[C@H](O)CC[C@H]2CCCO)c(O)c1 gave an Emax of 100% (Probable G-protein coupled receptor 132 (GPR132, Homo sapiens, UniProt Q9UNW8); agonist).

A few entries again:
Cc1ccc(-n2nccn2)c(C(=O)N2CCN(c3nc4cc(Cl)ccc4o3)CC[C@H]2C)c1 — result for “normalised fluorescence response”: -0.155 and -0.0149 and 0.348 and -0.265 and 0.0564 and -0.0321 (HCRTR2 del254-292/I293E/K294R/L160H/M161K/Q254E; fluorescence sensor response, fluorescence; concentration not given, added: OXA).
With C=CCN1CC[C@]23c4c5ccc(O)c4O[C@H]2C(=O)CC[C@]3(O)[C@H]1C5 the inhibition was 4% (Choline O-acetyltransferase (Homo sapiens, UniProt P28329); concentration not given).
